Measurements pooled from the literature.
Every numbered part comes from another study and shows a few of its results, in no order. Substitutions count along the parent as printed.

Study 1 — technique: RNA Bind-n-Seq; form: RNA; medium: in vitro; concentration: not given; setting: RNA with constant flanks, ends assumed; relative to: input RNA pool; reading: higher = stronger binding
Target: RING finger protein unkempt homolog, zinc fingers 1-6, GST-SBP tag (UNK, Homo sapiens, UniProt Q9C0B0, residues 30-357)
Chain of UniProt Q9C0B0 (30-357, looked up): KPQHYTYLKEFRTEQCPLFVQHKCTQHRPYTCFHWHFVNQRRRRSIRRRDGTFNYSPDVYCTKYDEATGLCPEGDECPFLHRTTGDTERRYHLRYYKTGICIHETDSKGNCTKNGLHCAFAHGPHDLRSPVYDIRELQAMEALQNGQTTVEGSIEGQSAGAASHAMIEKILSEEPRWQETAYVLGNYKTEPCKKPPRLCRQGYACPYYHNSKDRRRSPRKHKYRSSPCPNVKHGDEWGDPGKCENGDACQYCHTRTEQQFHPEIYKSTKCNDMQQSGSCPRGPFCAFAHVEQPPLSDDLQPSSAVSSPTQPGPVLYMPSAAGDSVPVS
Constant ends, left off below: GGGAGUUCUACAGUCCGACGAUC … CAACAGAGGAUUGAGCAUCA
| Sequence | bound/input enrichment |
| --- | --- |
| UCUUAACUUAUUCAUUUAACUUAUUUUUAUAGCUAGAUAAAUAUUGUUAGUCUUAGACAACCGCUCACAUUUUUUGAGAAGCAUGCCCUCCCUGUCCAUUUGUCUUAUAACAUGACCCAG | 11 ratio |
| UUCUUGAAGGCUAUUGGGUAUCUUAUUCCUCUUAUGGAUGCAGAAUAUGCCAACUACUAUACCCGAGAAGUGAUGUUAAUCCUCAUUCGAGAAUUUCAGUCUCCUGAUGAAGAAAUGAAG | 1.12 ratio |
| UCUGCAAUAGUUGGAUUUAUCUACGGGUACGUGGCUGAACAGUUCGGGUGGACUGUCUAUACCGUUAUGGCCGGAUUUGCUUUUUCAUGUUUGCUGACACUUCCUCCAUGGCCCAUCUAU | 0.247 ratio |
| ACAAAGCACUUCAUCUAUUUUUACUUGGGUCAAGUUGCAAUCCUCCUCUUCAAGUCGGGCCCGGUGGCCGAGGCGAAGGUGUCCGUGGCGGCGGCAGCGAUGGCAAGCAGGCGGCGUUGC | 0.268 ratio |
| ACAAUUGCUUUGCUUGGUUACCUGAAACACUACCGAAAUAUUCCUGGACCUCACAUGGUUUCCGUUCCAAAGUCUACUUUACACAACUGGAUGAAUGAAUUUAAACGAUGGGUCCCAUCU | 0.146 ratio |
| ACACCUUUGUUUCUUGCUGCCCGAGAGGGAAGUUAUGAAGCGGCCAAAAUCCUGUCCGACCAUUUUGCCAACCGGGACAUCACUGACCACAUGGACCGCCUUCCCCGGGAUGUGGCUCGG | 0.116 ratio |
| UAAAUUGUUGGAGUUCUUUUAAGAAGAAUAUAAAUUGAUUAUUUUUUUUAUUUAAAGGGACCGUUGAUUCCUGGGGUGUUUUGAAAUUAAGUUGGAAUUAAGUUGCUUAAGCAUAUUUAU | 0.458 ratio |
| UCUGUUUGUUUUUCUGUUGUUGUAGCUUUUUUUGUCCUGUUAUGUUUUAUCUGUUUGUAUUUCCGAAGGGGGAGGGGAAGUUGUAAUUAUUUCAUCUAAGUCUCCCAUUAUAUAUCUGUG | 3.33 ratio |
| CCGGCCGCACAACUACCUCAGCGCAGCGGUUGCUGCAGCGGCCCCAGGGCUUUAAACUGCCACCGGGCGCCCCCUUGAGGUUGCUUCACCCGCUGACCAUGUUCCAGCGCUUCACCAGCC | 0.141 ratio |
| UAUGAGACAGUGGUUGGCCCUGGGGAUGUUCUUUACAUCCCAAUGUACUGGUGGCACCAUACCGAGUCAUUACUAAAUGGGGGAAUUACCAUCACUGUGAACUUCUGGUAUAAGGGGGCU | 0.206 ratio |
| AGUCUGGCCGUACCACUGUGGCUGCUGGCAGCAUCUCUGCUCUGCCUUCUCAGCAAAUGUUAACCGAAUAAAAAUUUAAAAAUAAUUUAAAAAACACACAAAAAUGCGUCACACAGAAUA | 0.711 ratio |

Study 2 — technique: protein binding microarray; form: double-stranded DNA, one strand shown; medium: in vitro; concentration: not given; relative to: not given; reading: higher = stronger binding
Target: Histone acetyltransferase KAT6A, winged helix 1, GST fusion (KAT6A, Homo sapiens, UniProt Q92794, residues 1-85)
Setting: 8-mer, flanks averaged, mean of 2 arrays, mostly near background
Residues (chain): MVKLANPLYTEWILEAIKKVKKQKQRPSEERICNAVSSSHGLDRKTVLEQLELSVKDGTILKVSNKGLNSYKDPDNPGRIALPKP
| Sequence | E-score |
| --- | --- |
| AGATGCCT | -0.214 |
| AGAAGGGG | -0.216 |
| CCTGCATA | -0.0465 |
| CATAATTA | -0.114 |
| TACATAAA | -0.161 |
| ATGGGGGA | -0.0624 |
| CGCTCCAC | 0.135 |
| AAATGAGA | -0.225 |
| AGCTGGTC | -0.182 |
| AAGTGTCC | 0.0653 |
| ACACTTAC | 0.00606 |
| TAACCGTA | 0.247 |
| GTCAGCCA | -0.15 |
| CTTTCAGA | -0.112 |
| AGGATAAC | -0.213 |
| AGAACCCA | -0.28 |
| TAAAAGTA | 0.107 |
| ACAGGTAC | -0.161 |
| ACGAGAGG | -0.135 |

Study 3 — technique: DHFR PCA, deep sequencing; medium: yeast; added: (+)-ABA 17 µM; relative to: wild-type fitted maximum; reading: higher = stronger binding
Target: ABI1, truncated, D143A, DHFR fusion (Arabidopsis thaliana)
Setting: methotrexate growth selection, single substitutions
Starting sequence: PYL1, truncated, DHFR fusion (Arabidopsis thaliana); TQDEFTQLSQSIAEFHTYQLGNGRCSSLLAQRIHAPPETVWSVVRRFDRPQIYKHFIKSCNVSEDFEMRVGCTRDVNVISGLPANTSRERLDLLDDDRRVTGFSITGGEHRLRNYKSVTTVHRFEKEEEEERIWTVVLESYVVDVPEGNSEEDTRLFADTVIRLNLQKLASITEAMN
| Variant | relative binding score [%] |
| --- | --- |
| N61P | 3.64 |
| Q19N | 82.8 |
| R123S | 92.4 |
| C60A | 52.9 |
| K58E | 67.3 |
| T86R | 67.6 |
| L91N | -11.3 |
| I33P | 10.3 |
| E127D | 98.5 |
| G107C | 28.7 |
| Y53R | 15 |
| V145N | 15.5 |
| R99M | 103 |
| R113M | 78.7 |
| M68V | 77.6 |
| G71M | -9.16 |

Study 4 — technique: universal PBM; form: double-stranded DNA, one strand shown; medium: in vitro; concentration: 600 nM; reading: higher = stronger binding
Target: Sal-like protein 4, full length isoform A (SALL4, Homo sapiens, UniProt Q9UJQ4, residues 1-1053)
Chain of UniProt Q9UJQ4 (whole entry, looked up): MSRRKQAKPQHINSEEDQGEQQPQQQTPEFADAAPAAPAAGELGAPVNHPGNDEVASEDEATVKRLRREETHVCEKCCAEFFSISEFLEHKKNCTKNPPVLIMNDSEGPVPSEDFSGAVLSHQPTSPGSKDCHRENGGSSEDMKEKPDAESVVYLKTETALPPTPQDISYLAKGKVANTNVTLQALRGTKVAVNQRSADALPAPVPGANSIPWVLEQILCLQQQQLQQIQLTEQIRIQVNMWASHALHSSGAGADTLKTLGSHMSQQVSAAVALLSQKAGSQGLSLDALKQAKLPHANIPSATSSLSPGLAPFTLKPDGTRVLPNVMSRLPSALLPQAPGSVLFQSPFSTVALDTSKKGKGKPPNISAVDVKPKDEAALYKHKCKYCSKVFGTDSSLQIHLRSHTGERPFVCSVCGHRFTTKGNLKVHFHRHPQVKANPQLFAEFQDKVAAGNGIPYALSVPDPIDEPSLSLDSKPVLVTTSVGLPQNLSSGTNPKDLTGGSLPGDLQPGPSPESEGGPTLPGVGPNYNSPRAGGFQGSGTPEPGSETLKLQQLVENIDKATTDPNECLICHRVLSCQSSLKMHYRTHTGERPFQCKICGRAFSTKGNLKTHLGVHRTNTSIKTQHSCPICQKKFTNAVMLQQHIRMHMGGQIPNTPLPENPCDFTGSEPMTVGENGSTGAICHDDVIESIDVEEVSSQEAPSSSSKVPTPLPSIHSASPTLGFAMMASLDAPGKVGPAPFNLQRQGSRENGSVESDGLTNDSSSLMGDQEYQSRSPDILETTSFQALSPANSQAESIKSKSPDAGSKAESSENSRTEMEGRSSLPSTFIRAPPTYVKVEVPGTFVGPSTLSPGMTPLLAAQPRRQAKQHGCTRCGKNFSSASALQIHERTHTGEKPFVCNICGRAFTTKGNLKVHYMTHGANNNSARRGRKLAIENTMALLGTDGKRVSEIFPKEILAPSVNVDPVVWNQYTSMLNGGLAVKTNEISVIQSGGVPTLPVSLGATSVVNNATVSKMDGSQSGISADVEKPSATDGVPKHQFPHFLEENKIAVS
Setting: 8-mer, flanks averaged, mean of replicates
| Sequence | E-score |
| --- | --- |
| CGCCTGTC | -0.336 |
| TACCCCCA | 0.00152 |
| CCGCTCAG | -0.284 |
| AAATCGTC | 0.104 |
| GGAAAAAA | 0.277 |
| CTCACTTA | 0.0406 |
| GGATGCGA | -0.0748 |
| CCGTGACC | -0.355 |
| TCGGTAAA | 0.133 |
| ATCCCTTA | 0.0936 |
| CATCGCAA | 0.036 |
| AGTCATAT | 0.347 |
| CCGGTTAA | -0.187 |
| CAGATGTC | -0.028 |
| CGGTCAAA | 0.0637 |
| ACGGTGTG | -0.151 |
| AAGACTCG | -0.0743 |
| CATTTACG | 0.0654 |
| CGATAAAA | 0.247 |
| ACAAAAGC | 0.093 |
| CTAAGTTC | -0.219 |
| CTGGGGCA | -0.361 |
| CTTTTCTA | 0.106 |
| ATTATTGC | 0.369 |
| AGGCGCTC | -0.326 |

Study 5 — technique: protein-binding microarray; form: double-stranded DNA, one strand shown; medium: in vitro; concentration: 0.8 µM; setting: whole 60-bp probe, no competitor; reading: higher = stronger binding; constant ends, left off below: … GTCTTGATTCGCTTGACGCTGCTG
Target: Centromere-binding protein 1, full length, N-terminal tag (CBF1, Saccharomyces cerevisiae, UniProt P17106, residues 1-351)
Chain of UniProt P17106 (whole entry, looked up): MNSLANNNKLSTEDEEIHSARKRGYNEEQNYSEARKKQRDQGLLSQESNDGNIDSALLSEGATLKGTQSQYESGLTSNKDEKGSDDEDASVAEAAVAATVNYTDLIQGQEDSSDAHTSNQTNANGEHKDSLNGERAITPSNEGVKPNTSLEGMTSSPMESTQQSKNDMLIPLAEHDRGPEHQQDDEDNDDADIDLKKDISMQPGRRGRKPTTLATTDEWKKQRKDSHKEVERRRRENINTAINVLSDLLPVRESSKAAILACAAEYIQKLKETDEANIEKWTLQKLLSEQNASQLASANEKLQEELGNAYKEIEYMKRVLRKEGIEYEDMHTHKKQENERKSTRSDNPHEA
| Sequence | fluorescence intensity |
| --- | --- |
| GAATTCACTCCTACAGGTGATTCCTTCGAGAAATAG | 558 a.u. |
| CTAGGGAGGCAACGTGATGTGGTTCATAGCACTTTC | 1560 a.u. |
| GAATCAAGGCATGGCCGCGTGATGGCATTGCACTAG | 683 a.u. |
| CTATTTAATATATTTCTCATGATAGCTCCATAATTC | 502 a.u. |
| GAAATAGACAAAAAAAACATCATGAATAAAAAATAG | 547 a.u. |
| CTATCAAGAGGATGTGTCACCATGGTAGCAAAGTTC | 523 a.u. |
| CTAGTAGTGTATTATCACATGGTGTGTAAGAACTTC | 1690 a.u. |
| CTACTAGCATTTTATCACATGAGGTGTAAGAAGTTC | 1050 a.u. |
| GAATGTAGTTTTGCACCCGTGTACATAAGCGTGTAG | 681 a.u. |
| CTAGACAGTGTAAGCACCACCAGCGACGGTCTTTTC | 498 a.u. |
| CTACACACATGAGTTATCATGAGGAGTCATCAGTTC | 548 a.u. |
| CTATACTACCGGCACCTGATCCCCGCTAATTAGTTC | 1020 a.u. |
| GAAGTTAGATCGATTCCCGTGTCTGACAGTGTTTAG | 546 a.u. |
| CTAGACACTATAAATGACATGATGTGAGCCTTATTC | 525 a.u. |
| CCTAACTACTATAATCACAAGGAATAGCTTCGTACA | 513 a.u. |
| CTAATATGATAATATTCCGTCACCTTGAATACTTTC | 534 a.u. |
| CTAGTTATCATAAATAAGGTGACCGGTTATATTTTC | 616 a.u. |
| GAATAACAACCGTGGCGCGTGTCAAGGACTTCTTAG | 616 a.u. |
| CTACATCCTGCTCTACACGTTTGTACGTTTTCTTTC | 543 a.u. |
| GAACAATATTTTAATGTCGTGATATTGGTTCCCTAG | 684 a.u. |
| CTAGTCCCGAATCGGCACATGAGCGTCATTCTATTC | 630 a.u. |
| GAAATTGTATTTTATGGCGTGGGTGAAAATTCATAG | 555 a.u. |
| TGTACGAAGCTATTGTATGTGCGTATAGTAGTTAGG | 516 a.u. |
| CCTAACTACTATAACGTGATGGCATAGCTTCGTACA | 1000 a.u. |
| GAATTTGGAAAACAACATCAGAGAATTCCCAGATAG | 506 a.u. |

For quick reference, copied from above (study 5):
| Sequence | fluorescence intensity |
| --- | --- |
| GAACAATATTTTAATGTCGTGATATTGGTTCCCTAG | 684 a.u. |
| GAAATTGTATTTTATGGCGTGGGTGAAAATTCATAG | 555 a.u. |
| GAATTCACTCCTACAGGTGATTCCTTCGAGAAATAG | 558 a.u. |
| CTATACTACCGGCACCTGATCCCCGCTAATTAGTTC | 1020 a.u. |
| CCTAACTACTATAATCACAAGGAATAGCTTCGTACA | 513 a.u. |
| GAATGTAGTTTTGCACCCGTGTACATAAGCGTGTAG | 681 a.u. |
| TGTACGAAGCTATTGTATGTGCGTATAGTAGTTAGG | 516 a.u. |
| CTACACACATGAGTTATCATGAGGAGTCATCAGTTC | 548 a.u. |
| GAATTTGGAAAACAACATCAGAGAATTCCCAGATAG | 506 a.u. |
| CTACTAGCATTTTATCACATGAGGTGTAAGAAGTTC | 1050 a.u. |
| GAAATAGACAAAAAAAACATCATGAATAAAAAATAG | 547 a.u. |
| CTAGACACTATAAATGACATGATGTGAGCCTTATTC | 525 a.u. |
| CTATTTAATATATTTCTCATGATAGCTCCATAATTC | 502 a.u. |
| GAAGTTAGATCGATTCCCGTGTCTGACAGTGTTTAG | 546 a.u. |
